Experimental data collected from several papers.
Each numbered part is a random draw from the data of one study; scales do not carry over between parts.

Series 1 — method: RNA Bind-n-Seq; molecule type: RNA; matrix: in vitro; tested at: 1 µM; setting: whole 134-nt RNA, ends assumed; together with: 150 mM KCl; baseline: input library; reading: higher = stronger binding
Target: Ras GTPase-activating protein-binding protein 1, RRM domain (G3BP1, Homo sapiens, UniProt Q13283)
UniProt Q13283, sequence (whole entry, looked up): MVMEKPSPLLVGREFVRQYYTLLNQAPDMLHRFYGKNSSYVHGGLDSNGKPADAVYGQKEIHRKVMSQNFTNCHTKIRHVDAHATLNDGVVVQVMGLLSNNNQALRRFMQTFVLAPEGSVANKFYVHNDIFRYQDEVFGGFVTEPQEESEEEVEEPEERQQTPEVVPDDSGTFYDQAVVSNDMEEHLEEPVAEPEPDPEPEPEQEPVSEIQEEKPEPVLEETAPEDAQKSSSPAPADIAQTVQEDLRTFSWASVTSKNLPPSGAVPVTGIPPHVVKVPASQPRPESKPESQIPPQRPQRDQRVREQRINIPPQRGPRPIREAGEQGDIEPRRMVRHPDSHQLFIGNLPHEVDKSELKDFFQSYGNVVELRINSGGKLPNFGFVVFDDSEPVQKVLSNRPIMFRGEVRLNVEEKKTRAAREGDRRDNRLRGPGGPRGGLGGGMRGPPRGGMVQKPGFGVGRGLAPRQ
All sequences stand within: GGGAGUUCUACAGUCCGACGAUC … UGGAAUUCUCGGGUGUCAAGG
Oligonucleotide	log2 enrichment
ACCAUGCAGAUGGGCAUCUUUGGGAAGUGGGGCAAGGGGGGGAUAGGGAGGGGGGUAACACUUUGGGAACAGGUGGUCCCAGGUCGUUUC	-0.548
CACAGACAACACGCAAACACACAGACACAGAGGGAAGGGGUUGGGAUGGGGACAGGGUGCACAGCAGGGCGGGGUAGGACCCCAGCCCCU	-0.105
CUCAAGUCCUGUGCUACACAUCGUAUGUACCGAAUCGGGCGGGGCGGGGCGGGGAAAGUAUUAUGUUACGCCGUUCGGAUCUGCACUUCC	0.816
CACAGACAACACGCACCCACACAGACACAGAGGGAAGGGGUUGGGAUGGGGACAGGGUGCACAGCAGGGCGGGGUAGUACCCCAGCCCCU	-0.275
UGGCCCUGGUGGCAUGCGGGGAGGAAGAGGUGGCCACAUGGAUCGUGGUGGUCCCGGUGGAAUGUUCAGAGGUGGCCGUGGUGGAGACAG	0.991
UCAAGUCCUGUGCUACACAUCGUAUGUACCGAAUCGGGAAAGGGAAAGGGAAAGGAAAGUAUUAUGUUACGCCGUUCGGAUCUGCACUUC	-0.191
CUGUGCUACACAUCGUAUGUACCGAAUCGGCCCCCCCGGGCCCCCCCGGGCCCCCCCGGGGAAAGUAUUAUGUUACGCCGUUCGGAUCUG	-0.698
UGGCCCUGGUGGCAUGCGGGGAGGAAGAGGUGGCCUCAUGGAUCGUGGUGGUCCCGGUGGAAUGUUCAGAGGUGGCCGUGGUGGAAACAG	1.92
CAAGUCCUGUGCUACACAUCGUAUGUACCGAAUCGGGCCCCGGGCCCCGGCCCCGGAAAGUAUUAUGUUACGCCGUUCGGAUCUGCACUU	-1.1
AGUCCUGUGCUACACAUCGUAUGUACCGAAUCAAACCCAAAUUUUUAAACCCCCAAAAAAGUAUUAUGUUACGCCGUUCGGAUCUGCACU	-0.346
GCAGGAAGUAAAAACAAAUGGAAAUGCUUCGGAUAGUGGCAGGGGUGGGGGUUGCUAAGGAAAGGGGGGGAUGGGAGUGGGUAAAGAGUU	1.58
ACCAUGCAGGUGGGCAUCUUUGGGAAGUGGGGCAAGGGGGGGAAAAGGAGGGGGGUAACACUUUGGGAACAGGUGGUCCCAGGUCGUUUC	-0.357
UCCUGUGCUACACAUCGUAUGUACCGAAUCGGGCCCCCCGGGCCCCCCGGGGCCCCCCGGAAAGUAUUAUGUUACGCCGUUCGGAUCUGC	-0.425
AGUCCUGUGCUACACAUCGUAUGUACCGAAUCGGCCCCGGGGCCCCGGGGCCCCGGGGAAAGUAUUAUGUUACGCCGUUCGGAUCUGCAC	-1.31

Series 2 — method: protein binding microarray; molecule type: double-stranded DNA, one strand shown; matrix: in vitro; tested at: not given; baseline: not given; reading: higher = stronger binding
Target: Histone acetyltransferase KAT6A, winged helix 1, GST fusion (KAT6A, Homo sapiens, UniProt Q92794, residues 1-85)
Setting: 8-mer, flanks averaged, mean of 2 arrays, mostly near background
Residues (chain): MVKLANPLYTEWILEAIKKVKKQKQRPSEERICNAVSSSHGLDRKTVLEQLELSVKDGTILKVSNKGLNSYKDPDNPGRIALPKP
Oligonucleotide	E-score
GACGAGTC	-0.173
CGCTAAAG	0.227
ACGAAGAT	-0.148
CAGTATGA	-0.205
GCCCGGTA	0.308
GCATAAGC	0.00692
ATGTGACC	0.0228
CCTGCCAA	-0.182
CCGCAGTA	0.149
AGAGTACC	0.0108
AGCGGACC	0.208
ATAAACAA	-0.0497
CATCGTAC	-0.0688
ATGAAAAG	-0.108
CACTGAGC	0.0136
ATTAAGAA	-0.0682
ATACATTG	-0.206
ATTCGAGA	-0.204
GCGTCGGA	0.402
GTAATTAA	0.0692
CTTTGTAA	-0.157
CCCCTGCG	0.117
AACAGATC	-0.0889
GCATAACC	0.0733
GGCCGGCA	0.414

Series 3 — method: universal PBM; molecule type: double-stranded DNA, one strand shown; matrix: in vitro; tested at: not given; reading: higher = stronger binding
Target: Sal-like protein 4, full length isoform B (SALL4, Homo sapiens, UniProt Q9UJQ4-2, residues 1-616)
Setting: 8-mer, flanks averaged, mean of replicates
Residues (chain): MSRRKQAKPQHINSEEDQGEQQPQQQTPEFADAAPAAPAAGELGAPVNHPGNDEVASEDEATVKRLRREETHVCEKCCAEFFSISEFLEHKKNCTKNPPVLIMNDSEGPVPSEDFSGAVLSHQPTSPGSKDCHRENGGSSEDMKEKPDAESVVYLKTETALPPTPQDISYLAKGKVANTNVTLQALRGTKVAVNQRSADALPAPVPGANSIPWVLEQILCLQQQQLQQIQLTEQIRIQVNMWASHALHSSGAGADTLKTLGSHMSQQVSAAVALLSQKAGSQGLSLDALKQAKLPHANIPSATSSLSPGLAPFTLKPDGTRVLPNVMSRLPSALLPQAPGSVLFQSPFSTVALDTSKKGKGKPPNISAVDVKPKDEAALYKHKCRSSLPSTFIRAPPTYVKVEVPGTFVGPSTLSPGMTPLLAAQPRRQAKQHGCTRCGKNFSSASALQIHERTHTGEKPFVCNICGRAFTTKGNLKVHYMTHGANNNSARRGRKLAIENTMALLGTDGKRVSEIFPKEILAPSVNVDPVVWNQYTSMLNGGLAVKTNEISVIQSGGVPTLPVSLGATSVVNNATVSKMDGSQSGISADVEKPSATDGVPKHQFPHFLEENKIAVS
Oligonucleotide	E-score
TAAATTAA	0.328
ACCAAATC	-0.0526
AATGTGCC	0.0278
TACGACGA	-0.00298
CGGATTAC	-0.0112
CGGGGCCA	-0.354
CAACGTTC	0.00982
TGCCCAAA	-0.0553
ACAATTGA	0.146
AGGCAGAC	-0.209
AGACACGG	-0.0674
ACCTGCAC	-0.176
AGTACCAA	0.0685
AAGCCAGG	-0.337
CTATTCAC	0.0644
CACCAAGA	-0.112
CTTCAGTC	-0.0791
CACAGCGA	-0.059

Series 4 — method: RNA Bind-n-Seq; molecule type: RNA; matrix: in vitro; tested at: 365 nM; baseline: no-protein control; reading: higher = stronger binding
Target: RNA binding protein fox-1 homolog 2, RRM domain, GST-SBP tag (RBFOX2, Homo sapiens, UniProt O43251-10, residues 100-194)
Setting: natural RNA segment, single round, ends assumed
All sequences stand within: GGGAGUUCUACAGUCCGACGAUC … UGGAAUUCUCGGGUGCCAA
Target sequence (chain): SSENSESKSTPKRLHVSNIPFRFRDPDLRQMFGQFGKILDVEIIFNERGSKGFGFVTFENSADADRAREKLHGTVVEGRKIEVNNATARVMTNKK
Oligonucleotide	RBNS enrichment (R)
GCCUUGCUUCCUGAAGCUCUUCGGCUGACCUCCUCUUGGGAUCAGAGAUCUCCAAAACUAAGCCUUCAAAAACACAUUCGUGAAAAAGACUGAGUCCUCCAGAUCCCUGG	0.236
CAUUUGUAGAAGCAGCCAUCUUCCCCCUGGUGGGGCUUUGGGGUCUAUGUUAGCCAUUUGUAUCUACUUUAGCUCUCAAGUCCAGAUGAGAAUAGGGACCGUGGGGUAUG	0.463
UGGGGGUGGAGCUAUCACUUCCUCCAGAGGGAGGACAUCCCAGGGAUAGCACAAGUGAGUCAGAGUAUUUUCCCAGAGCUGGCGUGGAGGGGGCCCUCAGCGAGAGGUGA	0.731
AAGAAACAUUAGUCUUAGGAAUUCUUCAAAAAAUGGCAUCCCAAUGAAAAUAAAUUUGAUGACUAUAUUUUCAUGAAGGUUUGUGUCUUAUUUUAAAGUUAUAUUGAUAU	0.612
CAUGGCUGAAGCUGGAUGAGAUGUCCAGGAGUGCUCAUACAGCGACUGACGUAAGGACCCCCGACCGACCUCAUCUUGUUAAGUUAACGGAGACCCUUCUUGUUGAAGGG	0.371
GCUUGCAGUAUGUCCAGCUGGUUGGCAAACACGAGGAAGCUGCAGGGCUGGACCAUGUGGCCAAGCCUGCGCCUCCUGUGGCUUACCUGCCUGCCCACCCUUCGCACAUA	0.672
AAACAUGUUAAAAAAAAAAAUUAUAAGACAUGGACUAGUCCUCAUUAGCAUGUUUGCAUAGCAACCAGUCAAGAGCAUUUACACUAUUUCUGCUGAUAUACUCACCUUAG	2.63
CCCUGUCAUGCUCAUCAGCUUAUGGCUUCUGUCUAAGCACCUGAACAGAGGACUGAAACCUCCACUGCAGGCUGGUUUUAGGUCUUGAAUUAUGUAAGAAUCUUGCACAG	0.416
AAAUUACUUAUAAAUUUUUUAUAGUUGUAUUUUUGACCUGCCUUUUAUAUGUAUGAAUAUUUCAUAGUUUUGCAUAUCAGAUGUAGGCAUACAGACAAAUACAUAAACCA	0.855
UACCAAGUACUGGAGAAAAAGCAUCAAGUUCUUAGCCCUUGUAGCUUCUACCCUAGUUUCCCAUCCUCUCUCUGUGGAGGCCAAACCAACUCUUUGCCAGCAGCCACAAC	0.549
AGAAAUUUCUAGACACAACAGCUUAAAAUCACCCAAAUUUCAGUUCUUUACCUACUGCACUAACAAUGGCAAGGGGGGUAUUCUUUAUAUGUUGCCUUGUUUAACUACAG	0.625
UAUCCACUAUGAUUAUAAACUGUGUCUCGACCUGUGUUAUUUACAUUAGCUGCUUAAAAAAGCAUUGAGUUAAUUUUUUUAAAUAUCAACUAAAAUAUCAUAGUUCUGUG	0.472

Series 5 — method: aptamer microarray, sandwich; molecule type: DNA with 2'F-ANA; matrix: in vitro; tested at: 200 nM; together with: Cy3 exosite-II aptamer, 400 nM; reading: higher = stronger binding; oligonucleotide: GGTTGGTGTGGTTGG
Target: Prothrombin, mature alpha-thrombin (F2, Homo sapiens, UniProt P00734)
Setting: whole 15-mer aptamer, many near background
Modification	mean fluorescence intensity [a.u.]
2'F-ANA at 4 5 6 10 11 12	52.1
2'F-ANA at 1 5 6 8 9 10 11 12 13 14	45.7
2'F-ANA at 1 3 8 9 10 13	68.3
2'F-ANA at 3 4 5 7 11 14 15	56.9
2'F-ANA at 1 3 5 10 13 14	47.8
2'F-ANA at 4 5 7 9 10 12 14	44.6
2'F-ANA at 1 3 4 5 7 8 10 11 13	96.4
2'F-ANA at 2 3 4 6 8 10 13 15	177
2'F-ANA at 1 3 5 6 9 10 11 12 14 15	58.1
2'F-ANA at 7 8 10 11 12 13 14	116
2'F-ANA at 1 3 4 5 7 8 9 11 14 15	66.2
2'F-ANA at 1 2 3 5 6 7 10 12 13	50.8
2'F-ANA at 1 3 4 6 7 8 10 13	60.9
2'F-ANA at 4 6 8 9 12 13	360
2'F-ANA at 1 7 9 10 11 12 13	62.2
2'F-ANA at 3 10 15	589
2'F-ANA at 6 7 8 10 12 13 14	107
2'F-ANA at 4 6 7 8 11 12 13 14 15	104
2'F-ANA at 5 8 10 11 13	42.6
2'F-ANA at 1 2 3 6 8 9 12 13 14 15	87.3
2'F-ANA at 3 4 8 9 11 12	837
2'F-ANA at 4 5 6 7 9 10 13	48.5

A few entries again (series 5):
Modification	mean fluorescence intensity [a.u.]
2'F-ANA at 3 4 8 9 11 12	837
2'F-ANA at 4 5 6 7 9 10 13	48.5
2'F-ANA at 5 8 10 11 13	42.6
2'F-ANA at 1 3 4 5 7 8 10 11 13	96.4
2'F-ANA at 4 5 6 10 11 12	52.1
2'F-ANA at 1 3 5 6 9 10 11 12 14 15	58.1
2'F-ANA at 6 7 8 10 12 13 14	107
2'F-ANA at 3 10 15	589
2'F-ANA at 1 3 4 6 7 8 10 13	60.9
